Literature values as cited in several papers.
Protocols differ between the studies behind these lines. ± gives the spread as reported.
UniProt Q12809, sequence (whole entry, looked up): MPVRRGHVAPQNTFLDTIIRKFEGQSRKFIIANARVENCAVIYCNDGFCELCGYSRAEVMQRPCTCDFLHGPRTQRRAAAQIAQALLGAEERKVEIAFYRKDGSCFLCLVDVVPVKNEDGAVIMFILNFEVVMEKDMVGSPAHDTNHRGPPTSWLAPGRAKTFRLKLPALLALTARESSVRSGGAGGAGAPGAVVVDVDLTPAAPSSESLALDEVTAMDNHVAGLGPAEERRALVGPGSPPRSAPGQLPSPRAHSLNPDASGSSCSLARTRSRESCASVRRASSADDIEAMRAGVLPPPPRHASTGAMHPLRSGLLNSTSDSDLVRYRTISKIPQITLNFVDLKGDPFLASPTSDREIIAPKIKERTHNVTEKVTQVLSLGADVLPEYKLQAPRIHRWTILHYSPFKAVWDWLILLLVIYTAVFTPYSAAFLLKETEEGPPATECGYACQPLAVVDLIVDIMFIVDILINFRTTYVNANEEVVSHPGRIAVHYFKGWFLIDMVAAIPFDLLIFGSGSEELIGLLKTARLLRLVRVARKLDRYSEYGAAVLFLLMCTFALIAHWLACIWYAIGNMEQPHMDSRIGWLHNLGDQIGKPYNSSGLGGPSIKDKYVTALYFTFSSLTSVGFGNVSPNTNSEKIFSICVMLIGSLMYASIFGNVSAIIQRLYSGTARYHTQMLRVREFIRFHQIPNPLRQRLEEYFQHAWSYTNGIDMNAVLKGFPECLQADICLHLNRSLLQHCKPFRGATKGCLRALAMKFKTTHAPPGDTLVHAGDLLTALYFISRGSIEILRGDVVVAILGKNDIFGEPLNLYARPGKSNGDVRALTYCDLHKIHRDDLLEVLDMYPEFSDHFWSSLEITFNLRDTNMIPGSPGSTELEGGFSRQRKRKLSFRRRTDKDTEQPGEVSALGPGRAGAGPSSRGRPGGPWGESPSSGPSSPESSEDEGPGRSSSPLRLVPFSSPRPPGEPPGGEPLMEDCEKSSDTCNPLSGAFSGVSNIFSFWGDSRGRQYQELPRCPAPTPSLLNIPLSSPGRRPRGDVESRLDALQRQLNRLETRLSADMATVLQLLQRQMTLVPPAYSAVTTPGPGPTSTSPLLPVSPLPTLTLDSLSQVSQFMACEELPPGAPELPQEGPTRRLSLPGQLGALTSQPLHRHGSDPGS
UniProt P18825, sequence (whole entry, looked up): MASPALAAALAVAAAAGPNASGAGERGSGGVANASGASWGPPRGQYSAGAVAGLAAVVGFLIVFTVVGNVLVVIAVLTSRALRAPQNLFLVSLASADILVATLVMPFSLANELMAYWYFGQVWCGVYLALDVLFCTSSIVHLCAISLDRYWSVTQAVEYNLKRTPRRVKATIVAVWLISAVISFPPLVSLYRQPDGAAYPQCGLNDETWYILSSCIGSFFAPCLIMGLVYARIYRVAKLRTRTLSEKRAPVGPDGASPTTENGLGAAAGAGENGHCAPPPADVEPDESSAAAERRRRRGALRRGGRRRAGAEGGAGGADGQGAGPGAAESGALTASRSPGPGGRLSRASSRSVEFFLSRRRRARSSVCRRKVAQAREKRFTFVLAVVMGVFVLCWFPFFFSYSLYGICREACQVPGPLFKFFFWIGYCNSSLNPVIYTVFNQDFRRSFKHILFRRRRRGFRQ
UniProt P06536, sequence (whole entry, looked up): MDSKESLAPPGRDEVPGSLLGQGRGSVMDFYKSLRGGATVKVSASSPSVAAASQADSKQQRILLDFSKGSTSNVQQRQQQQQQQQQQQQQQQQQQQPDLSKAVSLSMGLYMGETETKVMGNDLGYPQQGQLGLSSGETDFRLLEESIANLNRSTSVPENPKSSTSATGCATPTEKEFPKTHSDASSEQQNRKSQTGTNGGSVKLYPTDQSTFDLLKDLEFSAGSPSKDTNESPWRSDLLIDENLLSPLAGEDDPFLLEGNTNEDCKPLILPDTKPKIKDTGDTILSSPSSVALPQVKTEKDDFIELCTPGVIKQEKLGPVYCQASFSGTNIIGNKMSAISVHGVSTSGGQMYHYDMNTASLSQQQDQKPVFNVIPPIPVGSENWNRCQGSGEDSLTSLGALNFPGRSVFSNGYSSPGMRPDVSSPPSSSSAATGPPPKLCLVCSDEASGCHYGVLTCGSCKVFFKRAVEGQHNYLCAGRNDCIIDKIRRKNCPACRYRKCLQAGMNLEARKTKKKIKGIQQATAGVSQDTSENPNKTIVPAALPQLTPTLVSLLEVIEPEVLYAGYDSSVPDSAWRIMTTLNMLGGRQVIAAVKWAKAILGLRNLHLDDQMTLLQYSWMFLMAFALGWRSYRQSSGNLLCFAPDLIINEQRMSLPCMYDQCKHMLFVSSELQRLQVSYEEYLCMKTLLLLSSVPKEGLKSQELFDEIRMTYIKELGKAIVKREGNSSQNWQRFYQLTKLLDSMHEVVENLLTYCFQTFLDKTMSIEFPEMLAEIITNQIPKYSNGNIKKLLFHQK
UniProt Q9Y5S2, sequence (whole entry, looked up): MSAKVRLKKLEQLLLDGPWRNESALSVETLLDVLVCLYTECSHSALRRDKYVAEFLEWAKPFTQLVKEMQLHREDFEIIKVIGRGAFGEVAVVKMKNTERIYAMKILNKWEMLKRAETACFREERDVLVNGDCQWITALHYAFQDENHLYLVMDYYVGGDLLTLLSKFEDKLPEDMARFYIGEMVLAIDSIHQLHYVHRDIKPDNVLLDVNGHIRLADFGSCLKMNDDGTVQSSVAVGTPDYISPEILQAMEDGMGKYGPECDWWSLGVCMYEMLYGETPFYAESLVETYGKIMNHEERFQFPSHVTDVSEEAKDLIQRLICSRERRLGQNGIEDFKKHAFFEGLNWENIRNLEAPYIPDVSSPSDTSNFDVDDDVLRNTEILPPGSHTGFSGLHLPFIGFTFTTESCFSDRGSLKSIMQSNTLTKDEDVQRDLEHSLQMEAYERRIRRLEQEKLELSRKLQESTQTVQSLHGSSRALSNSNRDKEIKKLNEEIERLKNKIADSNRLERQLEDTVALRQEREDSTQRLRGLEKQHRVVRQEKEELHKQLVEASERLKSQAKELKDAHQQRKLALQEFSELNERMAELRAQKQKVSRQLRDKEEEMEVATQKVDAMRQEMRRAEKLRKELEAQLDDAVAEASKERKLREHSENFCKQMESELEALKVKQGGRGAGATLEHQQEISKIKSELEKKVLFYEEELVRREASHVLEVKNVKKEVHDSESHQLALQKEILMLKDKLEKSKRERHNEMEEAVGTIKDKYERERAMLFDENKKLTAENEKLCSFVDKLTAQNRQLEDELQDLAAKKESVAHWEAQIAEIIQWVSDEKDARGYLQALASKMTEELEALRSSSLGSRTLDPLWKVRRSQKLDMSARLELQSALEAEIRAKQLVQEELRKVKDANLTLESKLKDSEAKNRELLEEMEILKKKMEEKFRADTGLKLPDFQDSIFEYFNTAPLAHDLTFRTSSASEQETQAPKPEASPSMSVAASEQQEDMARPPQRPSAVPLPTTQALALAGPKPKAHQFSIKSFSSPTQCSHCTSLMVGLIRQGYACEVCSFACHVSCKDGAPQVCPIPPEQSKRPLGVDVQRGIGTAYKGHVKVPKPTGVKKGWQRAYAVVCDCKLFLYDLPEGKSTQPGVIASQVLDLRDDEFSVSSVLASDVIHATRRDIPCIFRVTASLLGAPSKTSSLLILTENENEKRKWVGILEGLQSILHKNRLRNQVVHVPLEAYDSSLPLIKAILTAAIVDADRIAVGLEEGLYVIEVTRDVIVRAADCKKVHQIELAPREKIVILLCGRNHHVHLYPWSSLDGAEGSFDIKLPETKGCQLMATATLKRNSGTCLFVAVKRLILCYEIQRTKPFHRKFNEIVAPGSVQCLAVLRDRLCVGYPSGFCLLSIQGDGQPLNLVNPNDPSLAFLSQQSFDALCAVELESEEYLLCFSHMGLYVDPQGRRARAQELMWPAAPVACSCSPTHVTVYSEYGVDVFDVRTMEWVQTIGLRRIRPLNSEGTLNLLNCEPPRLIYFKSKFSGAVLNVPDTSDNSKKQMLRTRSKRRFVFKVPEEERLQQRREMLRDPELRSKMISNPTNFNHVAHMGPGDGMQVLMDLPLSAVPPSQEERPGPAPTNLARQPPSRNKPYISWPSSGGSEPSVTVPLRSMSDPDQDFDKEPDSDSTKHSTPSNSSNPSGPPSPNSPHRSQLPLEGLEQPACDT

`C[C@@H]1O[C@@H](OC[C@H]2O[C@@H](Oc3c(-c4ccc(O)c(O)c4)oc4cc(O)cc(O)c4c3=O)[C@H](O)[C@@H](O)[C@@H]2O)[C@H](O)[C@H](O)[C@H]1O` has an IC50 of greater than 100 µM (CYP2C).
`CO/N=C(\C(=O)N[C@@H]1C(=O)N2C(C(=O)O)=C(CSc3nc(=O)c(=O)[nH]n3C)CS[C@H]12)c1csc(N)n1` gave an IC50 of 150 µM (MRP4; inhibitor).
`CNC(=O)[C@@]12C[C@@H]1[C@@H](n1cnc3c(NCc4cccc(Cl)c4)nc(C#Cc4ccc(F)c(F)c4)nc31)[C@H](O)[C@@H]2O` gave a Ki of 2 µM (ADRA2C (Homo sapiens, UniProt P18825); radioligand binding).
For `NS(=O)(=O)C(F)(F)C(F)(F)C(F)(F)C(F)(F)C(F)(F)C(F)(F)C(F)(F)C(F)(F)F`, the IC50 was 0.71 ± 0.08 µM (CYP2C9; inhibitor).
`COc1cc2c(c(OC)c1OC)-c1c(cc(OC)c(OC)c1OC)C[C@H](C)[C@H](C)C2` gave an IC50 of 6.6 µM (CYP3A, rat; enzyme activity, inhibitor; rat liver microsomes).
The IC50 of `Cc1[nH]c(C)c(-c2ccc(OCc3ccccc3)cc2)c(=O)c1Br` is reported as 0.28 µM (Plasmodium falciparum; whole cell extended time; 3D7; 72 h).
With `CN(C)C/C=C/C(=O)Nc1cc2c(Nc3ccc(F)c(Cl)c3)ncnc2cc1O[C@H]1CCOC1` the IC50 was greater than 1 µM (ABCG2; H460/MX20).
`FC(F)(F)C(F)(F)C(F)(F)C(F)(F)C(F)(F)C(F)(F)C(F)(F)C(F)(F)Br`: IC50 “inactive” (CYP1A2; inhibitor; Tox21 screening).
`C[C@H]1COCCN1c1nc(-c2cnc(N)cc2C(F)F)nc(N2CCOCC2)n1` gave a GI50 of 0.347 µM (SW948).
`Clc1cccc(Nc2ccc3c(N4CCCCC4)ncnc3n2)c1` gave an IC50 of 0.58 µM (Plasmodium falciparum; whole cell extended time; 3D7; 72 h).
`COc1cc(Nc2ncc(F)c(Nc3ccc4c(n3)NC(=O)C(C)(C)O4)n2)cc(OC)c1OC` has an IC50 of 2.51 µM (BCRP (ABCG2); inhibitor; literature maximum).
`C#Cc1cccc(Nc2ncnc3cc(OCCOC)c(OCCOC)cc23)c1` gave an IC50 of 2.5 µM (ABCG2; HEK293-ABCG2).
`COc1cc(Nc2ncc(F)c(Nc3ccc4c(n3)N(COP(=O)(O)O)C(=O)C(C)(C)O4)n2)cc(OC)c1OC` gave an IC50 of 0.05 µM (human BCRP (ABCG2); literature geometric mean).
The IC50 of `O=C1CCc2cc(OCCCCc3nnnn3C3CCCCC3)ccc2N1` is reported as 13.8 µM (KCNH2 (Homo sapiens, UniProt Q12809); inhibitor).
With `CCC(=O)O[C@]1(C(=O)SCF)[C@H](C)C[C@H]2[C@@H]3C[C@H](F)C4=CC(=O)C=C[C@]4(C)[C@@]3(F)[C@@H](O)C[C@@]21C` the receptor occupancy was 88.8% (Nr3c1 (Rattus norvegicus, UniProt P06536); rat, spleen; intravenous, 90 nmol/kg, 0.5097 (unit not given)).
`CCNS(=O)(=O)C(F)(F)C(F)(F)C(F)(F)C(F)(F)C(F)(F)C(F)(F)C(F)(F)C(F)(F)F` has an IC50 of 1.88 ± 0.47 µM (CYP2C9; inhibitor).
For `CC1=NN(c2ccc(C)c(C)c2)C(=O)/C1=N\Nc1cccc(-c2cccc(C(=O)O)c2)c1O`, the IC50 was 2.7 µM (BCRP; inhibitor).
`CC(COc1ccc(Oc2ccccc2)cc1)Oc1ccccn1` (stereo not drawn) has an IC50 of 15.8 µM (CYP6P3; inhibitor).
With `CNC(C)C1CCC(N)C(OC2C(N)CC(N)C(OC3OCC(C)(O)C(NC)C3O)C2O)O1` (stereo not drawn) the MIC was greater than 8 mg/L (Pseudomonas aeruginosa; clinical isolate RKI-No_67/14).
The IC50 of `COC[C@H]1C[C@@H](c2ncc(-c3ccc4c(c3)COc3cc5c(ccc6nc([C@@H]7CC[C@H](C)N7C(=O)[C@@H](NC(=O)OC)C(C)C)[nH]c65)cc3-4)[nH]2)N(C(=O)[C@H](NC(=O)OC)c2ccccc2)C1` is reported as 0.3 µM (human BCRP (ABCG2); literature geometric mean).
The EC10 of `CCCC(CCC)C(=O)O` is reported as 215 µM (human neural embryonic cells; cell viability; unbound medium concentration).
The IC50 of `CC(O)c1cc(C(=O)N[C@@H](C)Cn2ccc(-c3ccc(C#N)c(Cl)c3)n2)[nH]n1` (stereo partly drawn) is reported as 1.31 µM (human BCRP (ABCG2); literature geometric mean).
`COc1c(N2C[C@@H]3CCCN[C@@H]3C2)c(F)cc2c(=O)c(C(=O)O)cn(C3CC3)c12` gave an IC50 of 47 µM (OCT1; inhibitor).
For `Cc1ccc(C)c(OCCCC(C)(C)C(=O)O)c1`, the IC50 was 295 µM (human BCRP (ABCG2); literature geometric mean).
`CNCc1cn(S(=O)(=O)c2cccc(F)c2)c(-c2ccc(F)cc2F)c1OC` has an IC50 of greater than 100 µM (BCRP; efflux transport).
`N[C@@H]1c2cccnc2[C@H](OC(=O)N2CCC(n3c(=O)[nH]c4ncccc43)CC2)CC[C@H]1c1cccc(F)c1F` has an IC50 of greater than 50 µM (UGT1A1 (human); enzyme activity, inhibitor; human liver microsomes).
`CC1(C)S[C@@H]2[C@H](NC(=O)[C@H](N)c3ccccc3)C(=O)N2[C@H]1C(=O)O` has an MIC of greater than 16 mg/L (Pseudomonas aeruginosa; clinical isolate RKI-No_1/16).
`FC1(F)C(F)(F)C(F)(F)C2(F)C(F)(F)C(F)(F)C(F)(F)C(F)(F)C2(F)C1(F)F` (stereo not drawn): IC50 “inactive” (CYP2C9; inhibitor; Tox21 screening).
The EC50 of `COc1ccccc1Oc1cccc(CN2CCC(NC(=O)C(CCN3CCCC3)c3ccccc3)CC2)c1` (stereo not drawn) is reported as greater than 10 µM (human CCR8 S110H mutant (TM3); IP accumulation, agonist).
The remaining activity of `Nc1cc(C(F)(F)F)c(-c2nc(N3CCOCC3)nc(N3CCOCC3)n2)cn1` is reported as 89% (CDC42BPB (Homo sapiens, UniProt Q9Y5S2); enzyme activity; 10 µM; reference: untreated).
The IC50 of `CCC(C)n1ncn(-c2ccc(N3CCN(c4ccc(OCC5COC(Cn6cncn6)(c6ccc(Cl)cc6Cl)O5)cc4)CC3)cc2)c1=O` (stereo not drawn) is reported as 3.36 µM (human BCRP (ABCG2); literature geometric mean).
Under IC50, `O=S(=O)(O)C(F)(F)F` is recorded as “inactive” (CYP1A2; inhibitor; Tox21 screening).
The IC50 of `CCCS(=O)(=O)Nc1ccc(F)c(C(=O)c2c[nH]c3ncc(-c4ccc(Cl)cc4)cc23)c1F` is reported as 2.6 µM (ABCG2; S1-M1-80).

Repeated from above:
`COc1c(N2C[C@@H]3CCCN[C@@H]3C2)c(F)cc2c(=O)c(C(=O)O)cn(C3CC3)c12` gave an IC50 of 47 µM (OCT1; inhibitor).
For `NS(=O)(=O)C(F)(F)C(F)(F)C(F)(F)C(F)(F)C(F)(F)C(F)(F)C(F)(F)C(F)(F)F`, the IC50 was 0.71 ± 0.08 µM (CYP2C9; inhibitor).
The IC50 of `O=C1CCc2cc(OCCCCc3nnnn3C3CCCCC3)ccc2N1` is reported as 13.8 µM (KCNH2 (Homo sapiens, UniProt Q12809); inhibitor).
